Measurements gathered from unrelated publications.
Every numbered part comes from another study and shows a few of its results, in no order. ± marks the error that the study gave.
Chain of UniProt P17655 (whole entry, looked up): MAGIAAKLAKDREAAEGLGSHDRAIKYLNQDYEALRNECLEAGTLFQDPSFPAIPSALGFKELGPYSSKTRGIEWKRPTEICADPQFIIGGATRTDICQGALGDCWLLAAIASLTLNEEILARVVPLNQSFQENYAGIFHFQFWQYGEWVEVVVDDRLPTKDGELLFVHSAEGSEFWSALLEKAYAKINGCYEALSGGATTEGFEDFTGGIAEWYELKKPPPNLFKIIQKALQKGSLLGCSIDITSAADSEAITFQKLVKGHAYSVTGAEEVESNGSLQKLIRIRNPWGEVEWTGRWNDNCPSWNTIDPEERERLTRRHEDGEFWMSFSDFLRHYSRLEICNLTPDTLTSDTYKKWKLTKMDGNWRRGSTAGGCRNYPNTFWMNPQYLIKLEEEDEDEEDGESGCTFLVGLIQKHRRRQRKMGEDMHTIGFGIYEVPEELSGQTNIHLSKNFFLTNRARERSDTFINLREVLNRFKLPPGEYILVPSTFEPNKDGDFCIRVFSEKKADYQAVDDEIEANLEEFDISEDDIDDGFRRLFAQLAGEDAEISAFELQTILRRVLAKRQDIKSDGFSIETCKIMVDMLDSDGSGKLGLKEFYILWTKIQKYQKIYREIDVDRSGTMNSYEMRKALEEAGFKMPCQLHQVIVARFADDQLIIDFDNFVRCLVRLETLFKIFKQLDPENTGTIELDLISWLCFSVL

Set 1
Cell line: MDA-MB-468
Time: 72 h
Measurement: CC50
O=C(NCc1ccc(Cl)cc1)c1cn(Cc2ccc(Cl)cc2)c2ccc(Oc3ccccc3)cc2c1=O: > 100 µM
O=C(NCc1ccc(C(F)(F)F)cc1)c1cn(Cc2ccc(F)cc2)c2ccc(Oc3ccccc3)cc2c1=O: 43.1 ± 0.82 µM
O=C(NCc1ccccc1)c1cn(Cc2ccc(C(F)(F)F)cc2)c2ccc(Oc3ccccc3)cc2c1=O: 83.2 ± 4.36 µM

Further values, each from its own experiment
Cc1cn([C@H]2C[C@H](N=[N+]=[N-])[C@@H](CO)O2)c(=O)[nH]c1=O — CC50 (MT4; cell viability; 3 days): > 0.5 µM
NC(=O)CI — IC50 (Calpain-2 catalytic subunit (Homo sapiens, UniProt P17655); enzyme activity, inhibitor): 80 µM
C[C@@H]1C[C@@H]([C@H](O)CC2CC(=O)NC(=O)C2)C(=O)[C@@H](C)C1 — protein translation (HepG2; Click-iT HPG fluorescence; 6.25 µM, 50 µM; relative to: DMSO vehicle): decreased
CCOC(=O)C1=C[C@@H](OC(CC)CC)[C@H](NC(C)=O)[C@@H](N)C1 — CC50 (MDCK; cell viability; 2 days): > 20 µM
O=c1nc(NO)ccn1[C@@H]1O[C@H](CO)[C@@H](O)[C@H]1O — IC50 (MRC-5): > 10 µM
